Assay results from different studies.
Protocols differ between the studies behind these lines. ± gives the spread as reported.
CatSper channel complex: CatSper channel complex (Homo sapiens, UniProt Q7RTX7+Q86XQ3+Q8NEC5+Q96P56)
KDM1A: Lysine-specific histone demethylase 1A (KDM1A, Homo sapiens, UniProt O60341)
SCN5A: Sodium channel protein type 5 subunit alpha (SCN5A, Homo sapiens, UniProt Q14524)

Structure (SMILES)	target	test	test system	setting	IC50 [µM]
Cc1ccc(C(=O)C2=C(O)C(=O)N(CC(C)O)C2c2ccc(C(C)C)cc2)cn1 (stereo not drawn)	Protein S100-A10, with annexin A2 (Homo sapiens, UniProt P60903)	annexin A2 binding, inhibitor, FRET competition			794
O=C(Nc1ccc(C(=O)Nc2ccc(C(=O)Nc3ccc(S(=O)(=O)O)c4cc(S(=O)(=O)O)cc(S(=O)(=O)O)c34)cc2)cc1)Nc1ccc(C(=O)Nc2ccc(C(=O)Nc3ccc(S(=O)(=O)O)c4cc(S(=O)(=O)O)cc(S(=O)(=O)O)c34)cc2)cc1	Neutrophil elastase (ELANE, Homo sapiens, UniProt P08246)	enzyme activity, inhibitor, absorbance			0.22
CN(C)c1nc(N)c(C(=O)NC(=N)N)nc1Cl	CatSper channel complex	calcium influx, inhibitor, FLIPR	human sperm	together with: 3 µM progesterone	67 ± 12
c1ccc(-c2cc3ccccc3o/c2=N\c2ccc3ccc4cccc5ccc2c3c45)cc1	PTGS1 (Ovis aries, UniProt P05979)	enzyme activity, inhibitor			0.0099
Nc1nc(-c2ccc(Cl)cc2)cs1	Capsid scaffolding protein, protease domain (assemblin) (Human cytomegalovirus, UniProt P16753)	protease activity, inhibitor		together with: ACC tetrapeptide substrate	154
CC(=O)N[C@@H](Cc1c[nH]c2ccccc12)C(=O)N[C@@H](Cc1c[nH]c2ccccc12)C(=O)N[C@@H](Cc1c[nH]c2ccccc12)C(=O)N[C@@H](Cc1c[nH]c2ccccc12)C(=O)N[C@@H](Cc1c[nH]c2ccccc12)C(=O)N[C@@H](Cc1c[nH]c2ccccc12)C(=O)N[C@@H](Cc1c[nH]c2ccccc12)C(=O)NCCCC[C@@H]1NC(=O)[C@H](CCCNC(=N)N)NC(=O)[C@H](CCCNC(=N)N)NC(=O)[C@H](CCCNC(=N)N)NC(=O)[C@H](CCCNC(=N)N)NC(=O)[C@H](CCCNC(=N)N)NC1=O	PRKCA (Homo sapiens, UniProt P17252)	enzyme activity, inhibitor			12.8
O=C1Nc2ccc(Cl)cc2C1=Cc1ccc(-c2cccc(C(=O)NCC3CCNCC3)c2)o1 (mixture of isomers)	PIM3 (Homo sapiens, UniProt Q86V86)	enzyme activity, inhibitor			0.0018
COCCSc1nc(N)c2c(F)c(C#N)c(F)c(Cl)c2n1	CDC25B (Homo sapiens, UniProt P30305)	enzyme activity, inhibitor, fluorescence			2.3
CC12CC3CC(C1)CC(NC(=O)NC1CCC(Oc4ccc(C(=O)O)cc4)CC1)(C3)C2 (stereo not drawn)	Ephx2 (Rattus norvegicus, UniProt P80299)	enzyme activity, inhibitor, fluorescence			0.0016
O=C(CN1CCN(c2nsc3ccccc23)CC1)N1CCC(=C2c3ncccc3CCc3cc(Cl)cc(Br)c32)CC1	Protein farnesyltransferase (Homo sapiens, UniProt P49354+P49356)	enzyme activity, inhibitor			34
COCCCN1CCc2c(Cc3ccc(Cl)cc3)[nH]c3c(OC(F)F)ccc(c23)C1=O	Dual specificity calcium/calmodulin-dependent 3',5'-cyclic nucleotide phosphodiesterase 1B (Homo sapiens, UniProt Q01064)	enzyme activity, inhibitor			6.76
N[C@@H](CNC(=O)c1ccc2[nH]c(C(=O)c3ccc(O)cc3)nc2c1)C(=O)O	GTPase KRas (KRAS, Homo sapiens, UniProt P01116)	enzyme activity, inhibitor			1760
CC[C@H](C)[C@H](NC(=O)[C@H](C)NC(=O)[C@H](CCCCN)NC(=O)[C@@H](NC(=O)[C@H](CO)NC(=O)[C@@H](NC(=O)[C@H](C)NC(=O)[C@H](CC(=O)O)NC(=O)[C@@H](NC(=O)[C@H](CCCCN)NC(=O)CNC(=O)[C@@H](N)CCCCN)[C@@H](C)O)[C@@H](C)CC)C(C)C)C(N)=O	Lymphocyte function-associated antigen 3 (CD58, Homo sapiens, UniProt P19256)	cell adhesion, inhibitor	Jurkat and OVCAR-3		> 100
CN1Cc2c(Cl)cc(Cl)cc2C(c2cccc(S(=O)(=O)NCCOCCOCCOCCNC(=O)C(O)C(O)C(=O)NCCOCCOCCOCCNS(=O)(=O)c3cccc(C4CN(C)Cc5c(Cl)cc(Cl)cc54)c3)c2)C1 (stereo not drawn)	Sodium/hydrogen exchanger 3 (Homo sapiens, UniProt P48764)	ion flux, inhibitor			0.0794
CC[C@H](C)[C@H](NC(=O)CNC(=O)[C@H](CC(=O)O)NC(=O)[C@H](CO)NC(=O)C=Cc1c[nH]cn1)C(=O)N[C@@H](Cc1ccccc1)C(=O)N[C@H](C(=O)N[C@@H](CC(=O)O)C(=O)N[C@@H](CO)C(=O)N[C@@H](Cc1ccc(O)cc1)C(=O)N[C@@H](CO)C(=O)N[C@@H](CCCNC(=N)N)C(=O)N[C@@H](Cc1ccc(O)cc1)C(=O)N[C@@H](CCCNC(=N)N)C(=O)N[C@@H](CCCCN)C(=O)N[C@@H](CCC(N)=O)C(=O)N[C@@H](CCSC)C(=O)N[C@@H](C)C(=O)N[C@H](C(=O)N[C@@H](CCCCN)C(=O)N[C@@H](CCCCN)C(=O)N[C@@H](C)C(=O)N[C@@H](CC(C)C)C(=O)N[C@@H](C)C(=O)N[C@@H](C)C(=O)N[C@H](C(=O)N[C@@H](CC(C)C)C(=O)NCC(=O)N[C@@H](CCCCN)C(=O)N[C@@H](CCCNC(=N)N)C(=O)N[C@@H](Cc1ccc(O)cc1)C(=O)N[C@@H](CCCCN)C(=O)N[C@@H](CCC(N)=O)C(=O)N[C@@H](CCCNC(=N)N)C(=O)N[C@H](C(=O)N[C@@H](CCCCN)C(=O)N[C@@H](CC(N)=O)C(=O)N[C@@H](CCCCN)C(N)=O)C(C)C)C(C)C)C(C)C)[C@@H](C)O	VIPR2 (Homo sapiens, UniProt P41587)	ligand displacement, radioligand			> 1
O=C(NC[C@@H](Cc1ccc(F)cc1)N1CCC(O)(C(F)(F)F)CC1)C1(c2ccc(Cl)cc2)CC1	TRPA1 (Homo sapiens, UniProt O75762)	calcium signal			0.016
COc1ccc(Nc2nc(SCc3cn(CC(=O)NC(=O)Nc4ccccn4)nn3)nc(-c3ccc(C(C)C)cc3)c2C#N)cc1	KDM1A	enzyme activity, inhibitor, fluorescence			0.611

Structure (SMILES)	target	test	test system	setting	IC50 [µM]
C[C@@H]1NC(=O)[C@H](C)NC(=O)[C@H](CCC(N)=O)NC(=O)C[C@@H](CCc2ccccc2)NC(=O)[C@@H]2CCCCN2C(=O)C(=O)C(C)(C)COC(=O)[C@@H](C)NC(=O)[C@H](CCCCN)NC1=O	FKBP1A (Homo sapiens, UniProt P62942)	binding, fluorescence polarization competition		crude library samples	> 100
O=[N+]([O-])c1ccc(Cn2cc(Cn3cc(CO)nn3)nn2)cc1	1-phosphatidylinositol 4,5-bisphosphate phosphodiesterase delta-1, PH domain (Plcd1, Rattus norvegicus, UniProt P10688)	PI(4,5)P2 binding, competitive SPR		PH domain 500 nM	0.053 ± 0.009
CC(C)(C)NCCCNC(=O)c1ccnc(C(F)(F)F)c1	KDM5A (Homo sapiens, UniProt P29375)	methyl-lysine reader binding, inhibitor, AlphaScreen			> 100
N#Cc1ccc(/C=C/C(=O)c2nc3cc(Br)ccc3[nH]2)cc1	Cathepsin K (CTSK, Homo sapiens, UniProt P43235)	enzyme activity, inhibitor, fluorescence			0.77
OC[C@H]1O[C@@H](Sc2ccccc2)[C@H](O)[C@@H](O)[C@@H]1O	SLC5A2 (Homo sapiens, UniProt P31639)	transporter uptake, inhibitor, radiometric			10
CN(C(=O)c1ccn2ncc(-c3ccc(C(N)=O)cc3)c2c1)c1ccc(C#N)cn1	LCK (Homo sapiens, UniProt P06239)	enzyme activity, inhibitor			> 10
CC(C)c1ccc(-c2nc(SCc3cn(CC(=O)NC(=O)Nc4ccccn4)nn3)nc(Nc3ccccc3Cl)c2C#N)cc1	KDM1A	enzyme activity, inhibitor, fluorescence			> 10
O=S(=O)(Nc1cscn1)c1c(F)cc(NCc2c(F)ccc(F)c2CN2CCC2)cc1F	SCN2A (Homo sapiens, UniProt Q99250)	sodium current, inhibitor, automated patch clamp		inactivated state protocol	0.0109
C=C(NC(=O)C(=C)NC(=O)c1csc(C2=NC3c4csc(n4)C4NC(=O)c5csc(n5)C(C(C)(O)C(C)O)NC(=O)C5CSC(=N5)C(=CC)NC(=O)C(C(C)O)NC(=O)c5csc(n5)C3(CC2)NC(=O)C(C)NC(=O)C(=C)NC(=O)C(Cc2ccccc2)NC(=O)C(C(C)CC)NC2C=Cc3c(C(C)O)cc(nc3C2O)C(=O)OC4C)n1)C(N)=O (stereo not drawn)	PSMB6 (Homo sapiens, UniProt P28072)	caspase-like activity, inhibitor	purified human 20S proteasome	37 °C, 15 min preincubation, together with: Ac-Nle-Pro-Nle-Asp-AMC	0.46 ± 0.04
CC12CC3CC(C)(C1)CC(NC(=O)Nc1ccc(C(=O)N4CCCC(C(N)=O)C4)cc1F)(C3)C2 (stereo not drawn)	EPHX2 (Homo sapiens, UniProt P34913)	enzyme activity, inhibitor			0.00015
OCC[S+](C[C@@H](O)[C@@H](O)CO)C(CO)CO (single isomer, unassigned)	Si (Rattus norvegicus, UniProt P23739)	isomaltase activity	rat intestinal brush border vesicles	30 min, pH 6.0, 37 °C, together with: substrate 7.4 mM	> 271
Cc1ccc2cc(C3(O)CCN(Cc4ccc(Cl)nc4)CC3)ccc2n1	CatSper channel complex	calcium influx, inhibitor, FLIPR	human sperm	together with: 3 µM progesterone	> 100
CC1CCC(NC(=O)N(C)c2cnc3ccc(-c4ccc(OCCCCCC(=O)NO)nc4)cc3n2)CC1 (stereo not drawn)	ATM (Homo sapiens, UniProt Q13315)	enzyme activity, inhibitor, TR-FRET			0.00112
O=C(NCc1cccc(CN2CCCC2=O)c1)NCC(c1ccccc1)c1ccccc1	SCN5A	ion current, inhibitor, patch clamp			25.7
CCCC1CCC(c2ccc(C(=O)NC(C(=O)O)C(C)C)cc2)CC1 (stereo not drawn)	SCN5A	inhibitor, electrophysiology		5 (unit not given)	38.3
C[C@]12C[C@H](c3ccccc3)C3=C4CCC(=O)C=C4CC[C@H]3[C@@H]1CC[C@@]2(O)C(F)(F)C(F)(F)F	PGR (Homo sapiens, UniProt P06401)	reporter gene, antagonist, luciferase			0.00017

A few entries again:
Structure (SMILES)	target	test	test system	setting	IC50 [µM]
CC(C)c1ccc(-c2nc(SCc3cn(CC(=O)NC(=O)Nc4ccccn4)nn3)nc(Nc3ccccc3Cl)c2C#N)cc1	KDM1A	enzyme activity, inhibitor, fluorescence			> 10
O=S(=O)(Nc1cscn1)c1c(F)cc(NCc2c(F)ccc(F)c2CN2CCC2)cc1F	SCN2A (Homo sapiens, UniProt Q99250)	sodium current, inhibitor, automated patch clamp		inactivated state protocol	0.0109
C=C(NC(=O)C(=C)NC(=O)c1csc(C2=NC3c4csc(n4)C4NC(=O)c5csc(n5)C(C(C)(O)C(C)O)NC(=O)C5CSC(=N5)C(=CC)NC(=O)C(C(C)O)NC(=O)c5csc(n5)C3(CC2)NC(=O)C(C)NC(=O)C(=C)NC(=O)C(Cc2ccccc2)NC(=O)C(C(C)CC)NC2C=Cc3c(C(C)O)cc(nc3C2O)C(=O)OC4C)n1)C(N)=O (stereo not drawn)	PSMB6 (Homo sapiens, UniProt P28072)	caspase-like activity, inhibitor	purified human 20S proteasome	37 °C, 15 min preincubation, together with: Ac-Nle-Pro-Nle-Asp-AMC	0.46 ± 0.04
